Measured values of several laboratories.
Values joined by “and” are separate records of one study, mostly repeats; a detail may differ. Numbers after ± are the reported error.

| SMILES | cell line | assay | conditions | scale | endpoint | result |
| --- | --- | --- | --- | --- | --- | --- |
| C1CCC(C(CC2CCCCN2)C2CCCCC2)CC1 (stereo not drawn) | human iPSC cardiomyocytes | plate-normalised | concentration not given, hit retest | baseline: vehicle controls, SDs below control | MyBP-C level change | 14.4 SD |
| C[C@H](NP(=O)(OC[C@H]1O[C@@H](n2ccc(N)nc2=O)C(F)(F)[C@@H]1O)Oc1ccccc1)C(=O)OCc1ccccc1 (stereo partly drawn) | HEK293T ATF4-FLuc reporter | ATF4 reporter gene, activator, luciferase reporter | – | – | EC50 | 1.34 µM |
| O=C(O)c1cc(O)c(O)c(O)c1 | Caco-2/THP-1 co-culture | TEER | 0.1 µg/mL, with: LPS 100 ng/mL | baseline: control | transepithelial electrical resistance | 74.8 ± 3.6% |
| Cc1ncsc1CCO | THP-1 | pyroptotic LDH release | 2 µM, 40 min, with: LPS then nigericin | – | inhibition | -3.08% |
| COc1ccc(OC)c(-c2nc3ccc(-c4nc5ccc(N6CCN(C)CC6)cc5[nH]4)cc3[nH]2)c1 | SF-268 | SRB | 10 µM, 48 h | – | growth percent | 97.6% |
| CN(C)CCOc1ccc2[nH]c(C(=O)NCC#Cc3ccc(C(=O)NO)cc3)cc2c1 | HEK293T ATF4-FLuc reporter | ATF4 reporter gene, activator, luciferase reporter | – | – | EC50 | 0.596 µM |
| Nc1ncnc2c1ncn2[C@@H]1O[C@H](COP(=O)(O)O)[C@@H](O)[C@H]1O | THP-1 | pyroptotic LDH release | 2 µM, 40 min, with: LPS then nigericin | – | inhibition | 5.18% |
| CO/C=C(/C(=O)OC)c1ccc(Cl)cc1COc1ccc(OCCOC)cc1 | HEK293T ATF4-FLuc reporter | ATF4 reporter gene, activator, luciferase reporter | – | – | EC50 | 1.12 µM |
| CCc1c(-c2ccccc2)c(-c2ccccc2)nn1-c1ccccc1-c1cccc(OCC(=O)O)c1 | mouse osteoclasts | RT-qPCR, refers to: Oscar | 1 µM, unit not given, with: M-CSF plus RANKL | baseline: bone marrow macrophages | mRNA level | 1.68 and 1.49 and 1.43 |
| COc1cc(/C=C/C(=O)N2CCC=CC2=O)cc(OC)c1OC | MDA-MB-468 | quantitative RT-PCR, refers to: OSM-R | 30 µM, 8 h | baseline: untreated | mRNA level | 86.6 ± 10.4% |
| Cn1cc(-c2ccc(-c3cncc(Cl)c3N3CCC4(CCNC4=O)CC3)cc2)cn1 | COLO 205 | microarray, refers to: TPBG | concentration not given, 6 h, gene set 5T4 | baseline: untreated cells | fold change in expression | 2 |
| CC(C)=CCNc1ncnc2c1ncn2[C@@H]1O[C@H](CO)[C@@H](O)[C@H]1O | HEK293T ATF4-FLuc reporter | ATF4 reporter gene, activator, luciferase reporter | – | – | EC50 | > 9.96 µM |
| CCCOc1ccn2c(C(C)=O)cc(-c3ccccc3S(C)(=O)=O)c2c1 | THP-1 | pyroptotic LDH release | 2 µM, 40 min, with: LPS then nigericin | – | inhibition | -11.3% |
| CN(C)C/C=C/C(=O)Nc1cc2c(Nc3ccc(F)c(Cl)c3)ncnc2cc1O[C@H]1CCOC1 | SW-620/AD300 spheroids, P-gp overexpressing | CellTiter-Glo 3D | 3 µM, 12 days | baseline: untreated | viability | 106 ± 7.3% |
| O=C(Nc1nccs1)c1cnn(-c2ccccc2)c1-n1cccc1 | human monocytes | phagocytosis of anti-D RBCs | 5 µM, lab-synthesized sample | – | inhibition | 42.1 ± 3.9% |
| C[C@H]1Oc2cc(cnc2N)-c2c(nn(C)c2C#N)CN(C)C(=O)c2ccc(F)cc21 | Ba/F3 EML4-ALK variant 1 L1196Q | cell viability | – | – | IC50 | 0.0192 µM |
| COc1cnc2cccc(N3CCc4c(cc(Cn5ccnc5C)cc4-c4cn(C)nc4C(F)(F)F)C3=O)c2c1 | NCI-H1975 | cell growth, inhibitor | 120 h | – | EC50 | 0.28 µM |
| Cn1cc(Nc2nccc(-c3ccc4c(c3)CN(C3COC3)CC[C@H]4NC(=O)c3cn(C(C)(C)C)nn3)n2)cn1 | human B cells | – | 100 nM, 64 h, non-stimulation-regulated genes, with: CD40L, anti-IgM, IL-21 | – | number of downregulated genes | 159 |
| CC(C)CN(C[C@@H](OP(=O)(O)O)[C@H](Cc1ccccc1)NC(=O)O[C@H]1CCOC1)S(=O)(=O)c1ccc(N)cc1 | THP-1 | pyroptotic LDH release | 2 µM, 40 min, with: LPS then nigericin | – | inhibition | -0.0894% |
| CC(C)(C)NC(=O)c1cncn1C1CCN(c2ccc(-c3nnc(C(F)(F)F)o3)cn2)CC1 | HDMEC | qPCR, refers to: L-GILZ | concentration not given, unit not given | baseline: DMSO | mRNA level | 2.62 |
| C=Cc1c2[n-]c(c1C)/C=c1\[n-]/c(c(C)c1C=C)=C\c1[n-]c(c(CCC(=O)O)c1C)/C=c1\[n-]c(c(C)c1CCC(=O)O)=C2.[Sn+4] | SH-SY5Y | RNA-seq, refers to: CXCL12 mRNA | 5 µM, 5 h | baseline: untreated cells | fold change | 1.95 |
| CCn1nc(-c2ccccc2)cc(Nc2cccc3ncccc23)c1=O | HEK293T ATF4-FLuc reporter | ATF4 reporter gene, activator, luciferase reporter | – | – | EC50 | 5.81 µM |
| CC(C)(C)NC(=O)N[C@H](C(=O)N1C[C@H]2[C@@H]([C@H]1C(=O)NC(CC1CCC1)C(=O)C(N)=O)C2(C)C)C(C)(C)C (stereo partly drawn) | THP-1 | pyroptotic LDH release | 2 µM, 40 min, with: LPS then nigericin | – | inhibition | 4.26% |
| O=C(Nc1cccc(C(F)(F)F)c1)c1cc(Br)cc(Br)c1O | HEK293T ATF4-FLuc reporter | ATF4 reporter gene, activator, luciferase reporter | – | – | EC50 | 2.25 µM |
| COc1cc(/C=C/C(=O)O)ccc1O | Caco-2/THP-1 co-culture | – | concentration not given, with: LPS 500 ng/mL | – | kynurenine level | 111 ± 5.8 % change |
| O=C(/C=C/C=C/C=C/C1CCCCC1)NC1=C[C@@](O)(/C=C/C=C/C=C/C(=O)NC2=C(O)CCC2=O)[C@@H]2O[C@@H]2C1=O | HEY A8 | CellTiter-Glo | 78 h | – | GI50 | 23.1 µM |

| SMILES | cell line | assay | conditions | scale | endpoint | result |
| --- | --- | --- | --- | --- | --- | --- |
| Cc1ccc(CNC(=O)Cn2cc(CSc3nc4ccccc4[nH]3)nn2)cc1 | MDA-MB-231 | MTT | 62.5 ppm | – | viability | 10.6% |
| CC/C(=N\NC(=O)NCc1cccc(O)c1)c1ccc(O)c(C)c1O | SK-OV-3 | Western blot, refers to: LATS | 10 µM, 6 h, 2D culture, unit not given | baseline: β-actin | protein level | 0.87 ± 0.34 |
| O=C(O)/C=C/c1ccc(O)c(O)c1 | coculture, Caco-2, THP-1 | ELISA | 250 ng/mL, 8 h, with: LPS, IFNγ, ATP | baseline: untreated control | IL-1β level | 6.3 ± 1.6 fold change |
| c1coc(CNc2ncnc3[nH]cnc23)c1 | THP-1 | pyroptotic LDH release | 2 µM, 40 min, with: LPS then nigericin | – | inhibition | -12.6% |
| COc1cc(CCC(=O)O)ccc1O | coculture, Caco-2, THP-1 | ELISA | 250 ng/mL, 8 h, with: LPS, IFNγ, ATP | baseline: untreated control | IL-1β level | 11.3 ± 1.3 fold change |
| CCn1cc(-c2cc(Cn3ccoc3=N)cc3c2CCN([C@@H](C)c2cc(OC)ccn2)C3=O)c(C(F)(F)F)n1 | JHUEM7 | cell growth | 120 h | – | EC50 | 11.8 µM |
| CCCCN1CCN(c2ccc3[nH]c(-c4ccc5[nH]c(-c6ccc(OCC)c(OCC)c6)nc5c4)nc3c2)CC1 | RXF 393 | SRB | 10 µM, 48 h | – | growth percent | -96.3% |
| COc1ccc(NC(=S)N/N=C/c2cccc3cc4ccccc4nc23)cc1 | HeLa | annexin V/PI | concentration not given, 48 h, dosed at IC25 | – | late apoptotic cells | 11.7% |
| Cc1ccc(NC(=O)C2(c3ccc4c(c3)OC(F)(F)O4)CC2)nc1-c1cccc(C(=O)O)c1 | CFBE41o- ΔF508-CFTR | SPQ chloride transport | 20 µM | – | CFTR activity increase | ≤ 27% |
| COc1ccc2[nH]c(C(=O)c3ccccc3)cc2c1 | HEK293T ATF4-FLuc reporter | ATF4 reporter gene, activator, luciferase reporter | – | – | EC50 | > 9.96 µM |
| CCn1cc(-c2cc(Cn3ccnc3)cc3c2CCN([C@H](c2cc(OC)ccn2)C2CC2)C3=O)c(C(F)(F)F)n1 | SW48 | cell growth, inhibitor | 120 h | – | EC50 | 0.634 µM |
| C=CC1=C(C)c2cc3[n-]c(cc4nc(cc5[n-]c(cc1n2)c(C)c5C=C)C(C)=C4CCC(=O)O)c(CCC(=O)O)c3C.[Zn+2] | SH-SY5Y | RNA-seq, refers to: PTX3 mRNA | 5 µM, 5 h | baseline: untreated cells | fold change | 2.05 |
| O=C(O)COCC(=O)O | hepatocytes, iPSC-derived, line L2 | cell viability, RealTime-Glo MT | 72 h, differentiation day 23 | – | IC50 | 15400 µM |
| CO/N=C(\C(=O)N[C@@H]1C(=O)N2C(C(=O)OC(C)OC(C)=O)=C(COC(N)=O)CS[C@H]12)c1ccco1 (stereo partly drawn) | THP-1 | pyroptotic LDH release | 2 µM, 40 min, with: LPS then nigericin | – | inhibition | 12.9% |
| C=CCN1CCN(CC(C)(C)COC(=O)C2=C(C)NC(C)=C(C(=O)OC)C2c2cccc([N+](=O)[O-])c2)CC1 (stereo not drawn) | HEK293T ATF4-FLuc reporter | ATF4 reporter gene, activator, luciferase reporter | – | – | EC50 | > 9.96 µM |
| O=c1c(O)c(-c2ccc(O)cc2)oc2cc(O)cc(O)c12 | Caco-2/THP-1 co-culture | TEER | 0.05 µg/mL, with: LPS 50 ng/mL | baseline: control | transepithelial electrical resistance | 76.2 ± 2.4% |
| Nc1cccc2c1C(=O)N(C1CCC(=O)NC1=O)C2=O (stereo not drawn) | bone marrow CD138+ myeloma cells | XTT | 0.8 µM, mean of three patients | – | viability | 110% |
| CNC(=O)c1c(-c2ccc(F)cc2)oc2cc(N(CCO)S(C)(=O)=O)c(C3CC3)cc12 | THP-1 | pyroptotic LDH release | 2 µM, 40 min, with: LPS then nigericin | – | inhibition | 10.1% |
| Clc1nc(NCc2ccco2)c2[nH]cnc2n1 | iPSC-derived cardiomyocytes | RNA-seq, refers to: chr9 exon ending 127879624 | unit not given | baseline: DMSO minus compound | ΔPSI | 0.213 |
| O=C(O)CCc1ccc(O)cc1 | Caco-2/THP-1 co-culture | – | 0.25 µg/mL, with: LPS 250 ng/mL | – | kynurenine level | 93.2 ± 1.2 % change |
| Cc1c(C)c2c(c(C)c1O)CCC(C)(COc1ccc(CC3SC(=O)NC3=O)cc1)O2 (stereo not drawn) | HepG2 | MTT, refers to: MTT response | 24 h, distribution mode 2 | – | point of departure | 14.1 µM |
| Cc1cc(C)n(-c2nc(-c3ccc(Cl)cc3)c3c(NC(=O)c4ccccc4)nnc-3[nH]2)n1 | SF-268 | SRB | 10 µM, NCI60 single-dose screen | baseline: untreated | cell growth | 98.1% |
| c1ccc2[nH]ccc2c1 | HCT-8 | RNA-seq, refers to: CAPN5 | concentration not given | – | mRNA level, LS mean | 64 counts per million |
| COc1cc(-c2oc3cc(O)cc(O)c3c(=O)c2O)ccc1O | Caco-2/THP-1 co-culture | – | concentration not given, with: LPS 50 ng/mL | – | kynurenine level | 113 ± 2.3 % change |
| C=CC(=O)Nc1cc2c(Nc3ccc(OCc4ccccn4)c(Cl)c3)ncnc2cc1OCCN1CCOCC1 | NCI-H2073 EGFR SVD knock-in | cell proliferation, CellTiter-Glo | – | baseline: knock-in over parental NCI-H2073 | selectivity ratio | 1.6 |

Repeated from above:
| SMILES | cell line | assay | conditions | scale | endpoint | result |
| --- | --- | --- | --- | --- | --- | --- |
| O=C(O)CCc1ccc(O)cc1 | Caco-2/THP-1 co-culture | – | 0.25 µg/mL, with: LPS 250 ng/mL | – | kynurenine level | 93.2 ± 1.2 % change |
| CCc1c(-c2ccccc2)c(-c2ccccc2)nn1-c1ccccc1-c1cccc(OCC(=O)O)c1 | mouse osteoclasts | RT-qPCR, refers to: Oscar | 1 µM, unit not given, with: M-CSF plus RANKL | baseline: bone marrow macrophages | mRNA level | 1.68 and 1.49 and 1.43 |
| C1CCC(C(CC2CCCCN2)C2CCCCC2)CC1 (stereo not drawn) | human iPSC cardiomyocytes | plate-normalised | concentration not given, hit retest | baseline: vehicle controls, SDs below control | MyBP-C level change | 14.4 SD |
| O=C(/C=C/C=C/C=C/C1CCCCC1)NC1=C[C@@](O)(/C=C/C=C/C=C/C(=O)NC2=C(O)CCC2=O)[C@@H]2O[C@@H]2C1=O | HEY A8 | CellTiter-Glo | 78 h | – | GI50 | 23.1 µM |
| C[C@H]1Oc2cc(cnc2N)-c2c(nn(C)c2C#N)CN(C)C(=O)c2ccc(F)cc21 | Ba/F3 EML4-ALK variant 1 L1196Q | cell viability | – | – | IC50 | 0.0192 µM |
| Cc1ncsc1CCO | THP-1 | pyroptotic LDH release | 2 µM, 40 min, with: LPS then nigericin | – | inhibition | -3.08% |
| Cn1cc(Nc2nccc(-c3ccc4c(c3)CN(C3COC3)CC[C@H]4NC(=O)c3cn(C(C)(C)C)nn3)n2)cn1 | human B cells | – | 100 nM, 64 h, non-stimulation-regulated genes, with: CD40L, anti-IgM, IL-21 | – | number of downregulated genes | 159 |
